# Experimental data collected from several papers.
# Each numbered part is a random draw from the data of one study; scales do not carry over between parts. Several values in a cell are separate wells, animals, samples, runs or records.
# UniProt Q9Y2U5, sequence (whole entry, looked up): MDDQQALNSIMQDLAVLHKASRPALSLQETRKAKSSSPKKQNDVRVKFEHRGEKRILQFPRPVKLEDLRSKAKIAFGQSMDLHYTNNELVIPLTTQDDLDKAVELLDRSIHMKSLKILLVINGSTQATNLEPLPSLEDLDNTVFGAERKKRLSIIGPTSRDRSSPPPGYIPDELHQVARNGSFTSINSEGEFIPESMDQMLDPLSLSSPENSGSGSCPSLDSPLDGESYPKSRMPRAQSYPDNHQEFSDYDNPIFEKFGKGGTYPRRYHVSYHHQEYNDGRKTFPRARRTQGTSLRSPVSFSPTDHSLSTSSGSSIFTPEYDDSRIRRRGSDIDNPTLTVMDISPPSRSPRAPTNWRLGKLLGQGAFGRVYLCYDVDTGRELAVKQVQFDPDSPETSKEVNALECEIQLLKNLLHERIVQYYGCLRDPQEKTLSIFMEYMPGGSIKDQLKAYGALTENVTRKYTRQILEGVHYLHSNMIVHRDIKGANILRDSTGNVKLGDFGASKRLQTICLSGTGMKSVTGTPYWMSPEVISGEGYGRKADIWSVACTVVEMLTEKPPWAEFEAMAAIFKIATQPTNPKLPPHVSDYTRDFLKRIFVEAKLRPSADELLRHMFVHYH
# UniProt P51813, sequence (whole entry, looked up): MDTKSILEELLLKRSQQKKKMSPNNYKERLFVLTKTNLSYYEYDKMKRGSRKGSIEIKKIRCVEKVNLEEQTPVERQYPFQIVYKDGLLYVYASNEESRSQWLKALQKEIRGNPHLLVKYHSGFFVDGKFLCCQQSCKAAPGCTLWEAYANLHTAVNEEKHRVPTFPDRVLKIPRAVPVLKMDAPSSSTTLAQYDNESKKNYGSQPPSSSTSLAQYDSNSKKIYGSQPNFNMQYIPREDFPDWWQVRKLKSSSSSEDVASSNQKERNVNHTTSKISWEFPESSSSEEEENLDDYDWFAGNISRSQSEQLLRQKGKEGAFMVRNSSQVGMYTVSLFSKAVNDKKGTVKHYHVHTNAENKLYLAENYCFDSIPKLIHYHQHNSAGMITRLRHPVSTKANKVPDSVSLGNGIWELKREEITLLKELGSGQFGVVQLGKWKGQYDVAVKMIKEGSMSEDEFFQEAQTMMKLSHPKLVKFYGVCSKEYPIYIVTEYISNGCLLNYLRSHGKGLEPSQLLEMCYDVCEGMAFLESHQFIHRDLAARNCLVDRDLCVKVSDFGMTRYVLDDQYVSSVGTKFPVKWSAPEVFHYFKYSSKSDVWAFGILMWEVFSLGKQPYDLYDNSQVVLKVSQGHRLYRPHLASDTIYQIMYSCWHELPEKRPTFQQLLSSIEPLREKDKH
# UniProt Q56UN5, sequence (whole entry, looked up): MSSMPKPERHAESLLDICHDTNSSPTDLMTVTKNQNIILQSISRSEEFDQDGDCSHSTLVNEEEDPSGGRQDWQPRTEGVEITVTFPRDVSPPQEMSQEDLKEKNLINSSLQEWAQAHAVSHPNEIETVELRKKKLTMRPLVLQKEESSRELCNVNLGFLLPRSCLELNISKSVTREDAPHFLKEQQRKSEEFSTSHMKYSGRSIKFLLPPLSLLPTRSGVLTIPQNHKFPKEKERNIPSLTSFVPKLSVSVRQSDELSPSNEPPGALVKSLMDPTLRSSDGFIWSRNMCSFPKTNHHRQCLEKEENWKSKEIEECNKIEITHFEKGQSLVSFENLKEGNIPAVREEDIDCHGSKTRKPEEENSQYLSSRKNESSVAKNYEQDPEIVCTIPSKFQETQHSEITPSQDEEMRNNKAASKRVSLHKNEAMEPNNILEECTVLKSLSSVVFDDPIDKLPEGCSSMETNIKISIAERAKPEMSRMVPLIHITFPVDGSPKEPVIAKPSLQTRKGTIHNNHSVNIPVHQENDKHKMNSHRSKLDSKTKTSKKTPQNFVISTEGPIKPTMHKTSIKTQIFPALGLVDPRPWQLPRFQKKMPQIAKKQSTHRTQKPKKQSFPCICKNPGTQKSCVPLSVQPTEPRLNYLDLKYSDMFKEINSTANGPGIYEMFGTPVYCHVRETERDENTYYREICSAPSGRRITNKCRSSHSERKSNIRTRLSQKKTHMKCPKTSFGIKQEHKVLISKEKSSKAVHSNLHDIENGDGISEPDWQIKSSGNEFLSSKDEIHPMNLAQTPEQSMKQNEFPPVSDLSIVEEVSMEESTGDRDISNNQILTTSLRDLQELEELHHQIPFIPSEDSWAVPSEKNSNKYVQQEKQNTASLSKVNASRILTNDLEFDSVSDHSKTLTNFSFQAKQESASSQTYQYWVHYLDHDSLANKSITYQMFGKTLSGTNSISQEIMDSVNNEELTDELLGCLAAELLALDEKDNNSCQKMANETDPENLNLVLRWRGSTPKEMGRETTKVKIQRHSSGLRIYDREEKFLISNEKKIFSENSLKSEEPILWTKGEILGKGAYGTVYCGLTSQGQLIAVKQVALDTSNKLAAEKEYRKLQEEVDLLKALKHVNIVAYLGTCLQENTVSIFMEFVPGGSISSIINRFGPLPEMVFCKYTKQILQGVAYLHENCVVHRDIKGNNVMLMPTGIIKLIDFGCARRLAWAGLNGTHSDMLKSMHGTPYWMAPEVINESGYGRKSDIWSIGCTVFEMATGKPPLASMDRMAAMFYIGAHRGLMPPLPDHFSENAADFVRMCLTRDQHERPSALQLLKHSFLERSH
# UniProt Q8TBX8, sequence (whole entry, looked up): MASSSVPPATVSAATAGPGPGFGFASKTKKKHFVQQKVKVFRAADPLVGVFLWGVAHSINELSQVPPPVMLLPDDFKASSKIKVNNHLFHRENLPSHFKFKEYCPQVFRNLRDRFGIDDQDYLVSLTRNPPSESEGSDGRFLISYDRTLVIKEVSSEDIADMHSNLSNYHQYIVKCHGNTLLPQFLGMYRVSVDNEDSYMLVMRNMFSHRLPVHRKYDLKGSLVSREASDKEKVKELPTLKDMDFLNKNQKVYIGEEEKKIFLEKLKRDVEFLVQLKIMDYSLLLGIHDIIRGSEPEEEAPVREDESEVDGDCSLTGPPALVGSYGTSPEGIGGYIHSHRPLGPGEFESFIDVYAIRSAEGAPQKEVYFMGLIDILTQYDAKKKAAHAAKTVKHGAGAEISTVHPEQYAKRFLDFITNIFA

# Study 1
# Compound: Cc1ccc(O)c(C)c1-c1cnc2[nH]c(-c3cnc(N)nc3)cc2c1C#N
# PKMYT1: Membrane-associated tyrosine- and threonine-specific cdc2-inhibitory kinase (PKMYT1, Homo sapiens, UniProt Q99640)
# UniProt Q99640, sequence (whole entry, looked up): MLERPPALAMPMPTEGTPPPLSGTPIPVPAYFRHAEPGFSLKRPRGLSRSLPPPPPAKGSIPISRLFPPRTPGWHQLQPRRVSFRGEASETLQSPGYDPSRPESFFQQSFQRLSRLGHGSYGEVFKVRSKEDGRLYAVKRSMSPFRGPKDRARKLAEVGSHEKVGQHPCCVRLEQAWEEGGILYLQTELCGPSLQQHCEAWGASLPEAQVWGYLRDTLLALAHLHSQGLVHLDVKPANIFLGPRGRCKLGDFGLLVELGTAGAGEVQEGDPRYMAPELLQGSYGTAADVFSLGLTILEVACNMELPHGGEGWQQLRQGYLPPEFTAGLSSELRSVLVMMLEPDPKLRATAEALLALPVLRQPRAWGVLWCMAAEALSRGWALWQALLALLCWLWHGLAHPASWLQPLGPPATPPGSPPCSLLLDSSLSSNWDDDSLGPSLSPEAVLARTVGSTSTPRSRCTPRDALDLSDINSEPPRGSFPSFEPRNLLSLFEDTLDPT
tested on,observed,mode,method,measured,tested at,inhibition
HCC1569,,,automated capillary immunoblot,CDK1 phospho-Thr14,0.02 nM,14.3%
HCC1569,cell proliferation,,,,123.46 nM,11.7%
HCC1569,,,automated capillary immunoblot,CDK1 phospho-Thr14,12.35 nM,36.9%
MKN-1,cell proliferation,,,,3333.33 nM,98.4%
U-251 MG,cell growth,,,,0.5081 nM,2.13%
HCC1569,cell proliferation,,,,4.57 nM,-1.23%
PKMYT1,,,,,5e-05 µM,-3.42% and 1.66%
MKN-1,cell proliferation,,,,370.37 nM,48.8%
KLE,cell proliferation,,,,10000 nM,93.8%
HCC1569,cell proliferation,,,,3333.33 nM,94.7%
HCC1806,cell proliferation,,,,10000 nM,99%
NCI-H1648,cell proliferation,,,,258.4 nM,-18.8%
HCC1569,,,automated capillary immunoblot,CDK1 phospho-Thr14,4.12 nM,15.8%
PKMYT1,enzyme activity,inhibitor,,,4.115 nM,68.1%
PKMYT1,,,,,0.0004572 µM,0.676% and 7.54%

# Study 2 — tested at: 1 µM
# Structure (SMILES): CC[C@@]1(c2cccc(-c3c(F)cncc3OC)c2)C2=C(Nc3n[nH]cc31)[C@H](F)C(C)(C)CC2=O (single isomer, unassigned)
target,observed,method,relative to,remaining binding [%]
"CDK17 (Homo sapiens, UniProt Q00537)",binding,competition with immobilised ligand,,18
"EPHB2 (Homo sapiens, UniProt P29323)",binding,competition with immobilised ligand,,100
"FES (Homo sapiens, UniProt P07332)",binding,competition with immobilised ligand,,100
"HIPK4 (Homo sapiens, UniProt Q8NE63)",binding,competition with immobilised ligand,,74
"NEK3 (Homo sapiens, UniProt P51956)",kinase binding,KINOMEscan,DMSO control,58
"PDGFRB (Homo sapiens, UniProt P09619)",kinase binding,KINOMEscan,DMSO control,100
"MET (Homo sapiens, UniProt P08581, M1250T)",kinase binding,KINOMEscan,DMSO control,77
"CHEK1 (Homo sapiens, UniProt O14757)",kinase binding,KINOMEscan,DMSO control,75
"Tyrosine-protein kinase ABL1, phosphorylated (ABL1, Homo sapiens, UniProt P00519)",binding,competition with immobilised ligand,,95
"AKT2 (Homo sapiens, UniProt P31751)",kinase binding,KINOMEscan,DMSO control,100
"MAP3K19 (Homo sapiens, UniProt Q56UN5)",binding,competition with immobilised ligand,,60
"SYK (Homo sapiens, UniProt P43405)",binding,competition with immobilised ligand,,98
"BMX (Homo sapiens, UniProt P51813)",kinase binding,KINOMEscan,DMSO control,100
"PIP4K2C (Homo sapiens, UniProt Q8TBX8)",binding,competition with immobilised ligand,,100
"MAP3K2 (Homo sapiens, UniProt Q9Y2U5)",binding,competition with immobilised ligand,,90

# Study 3 — observed: binding; mode: competitor; method: NanoBRET; cell line: HEK293
# SMILES: CN1CCC[C@H]1COc1nc2c(c(N3CCN(C(=O)C(F)(F)F)[C@@H](CC#N)C3)n1)CCN(c1cccc3cccc(Cl)c13)C2
# KRAS Q61R: GTPase KRas (KRAS, Homo sapiens, UniProt P01116, Q61R)
# KRAS G13D: GTPase KRas (KRAS, Homo sapiens, UniProt P01116, G13D)
target,tested at,normalized BRET
"GTPase KRas (KRAS, Homo sapiens, UniProt P01116, Q61L)",45.7 nM,91.6% and 91.9% and 96.9%
KRAS Q61R,15.2 nM,92.9% and 99% and 104%
KRAS G13D,1.69 nM,87.9% and 96.1% and 104% and 94.7%
"GTPase KRas (KRAS, Homo sapiens, UniProt P01116, G12D)",3.7 µM,97.8% and 95% and 87%
KRAS G13D,137 nM,99.4% and 102% and 88.2% and 89.6%
KRAS G13D,45.7 nM,87.1% and 91.1% and 104% and 101%
KRAS G13D,15.2 nM,96.4% and 101% and 86.6% and 105%
KRAS Q61R,1.24 µM,81% and 84.8% and 100%
"GTPase KRas (KRAS, Homo sapiens, UniProt P01116, Q61H)",45.7 nM,84.5% and 89.8% and 97.6% and 98.7%
KRAS Q61R,137 nM,106% and 93.6% and 91.8%

# Study 4 — observed: thermal unfolding; method: differential scanning fluorimetry; tested at: 5.5 µM; reading: higher = more unfolded
# SMILES: C[C@@H]1CN(c2ccc(-c3cc(C(=O)NCCOCCOCCOCCOCCNC(=O)Cn4cc(-c5[nH]cc(C(=O)N[C@@H](CC(N)=O)c6ccc(F)c(Cl)c6)c5-c5ccc(Cl)cc5F)cn4)ccc3F)cc2NC(=O)c2c[nH]c(=O)cc2C(F)(F)F)C[C@H](C)N1C
# WDR5: WD repeat-containing protein 5 (WDR5, Homo sapiens, UniProt P61964)
# DCAF1: DDB1- and CUL4-associated factor 1 (DCAF1, Homo sapiens, UniProt Q9Y4B6)
# UniProt Q9Y4B6, sequence (whole entry, looked up): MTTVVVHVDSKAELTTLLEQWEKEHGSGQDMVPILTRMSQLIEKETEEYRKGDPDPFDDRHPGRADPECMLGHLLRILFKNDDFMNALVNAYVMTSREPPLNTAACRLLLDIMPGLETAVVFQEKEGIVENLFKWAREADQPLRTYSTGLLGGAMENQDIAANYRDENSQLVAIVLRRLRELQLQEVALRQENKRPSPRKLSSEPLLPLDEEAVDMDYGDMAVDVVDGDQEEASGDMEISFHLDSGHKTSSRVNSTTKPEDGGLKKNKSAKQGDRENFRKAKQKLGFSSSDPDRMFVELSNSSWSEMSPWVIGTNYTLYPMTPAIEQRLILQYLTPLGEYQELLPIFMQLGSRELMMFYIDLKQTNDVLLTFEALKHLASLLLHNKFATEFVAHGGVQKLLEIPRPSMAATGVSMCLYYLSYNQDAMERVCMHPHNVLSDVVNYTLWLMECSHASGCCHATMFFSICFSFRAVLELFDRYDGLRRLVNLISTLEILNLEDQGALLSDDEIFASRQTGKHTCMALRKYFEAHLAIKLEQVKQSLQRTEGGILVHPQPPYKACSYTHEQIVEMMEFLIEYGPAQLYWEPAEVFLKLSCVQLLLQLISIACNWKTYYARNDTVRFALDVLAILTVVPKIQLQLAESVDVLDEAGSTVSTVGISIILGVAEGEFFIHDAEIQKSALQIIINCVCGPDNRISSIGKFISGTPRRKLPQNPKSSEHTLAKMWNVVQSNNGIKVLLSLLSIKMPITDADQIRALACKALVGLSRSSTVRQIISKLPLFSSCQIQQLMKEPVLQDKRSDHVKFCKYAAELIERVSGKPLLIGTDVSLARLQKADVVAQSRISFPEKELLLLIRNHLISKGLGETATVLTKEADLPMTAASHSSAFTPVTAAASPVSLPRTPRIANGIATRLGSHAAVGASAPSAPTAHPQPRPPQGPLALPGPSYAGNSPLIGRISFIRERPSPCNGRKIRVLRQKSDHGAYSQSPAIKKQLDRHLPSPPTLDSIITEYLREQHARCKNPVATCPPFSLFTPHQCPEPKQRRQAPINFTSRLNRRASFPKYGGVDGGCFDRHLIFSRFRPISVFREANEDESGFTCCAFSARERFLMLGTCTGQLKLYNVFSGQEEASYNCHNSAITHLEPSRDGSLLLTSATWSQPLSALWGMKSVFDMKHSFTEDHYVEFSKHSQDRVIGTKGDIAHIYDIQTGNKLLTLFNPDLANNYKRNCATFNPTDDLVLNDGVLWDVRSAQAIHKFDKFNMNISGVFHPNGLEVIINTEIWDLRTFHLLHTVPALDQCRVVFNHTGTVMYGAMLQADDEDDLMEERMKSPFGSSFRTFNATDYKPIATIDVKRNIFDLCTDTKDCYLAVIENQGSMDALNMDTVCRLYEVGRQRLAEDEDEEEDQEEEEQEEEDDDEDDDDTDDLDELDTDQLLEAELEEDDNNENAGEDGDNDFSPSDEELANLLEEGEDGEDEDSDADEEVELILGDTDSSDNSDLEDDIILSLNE
target,temperature,SYPRO Orange fluorescence
WDR5,76.01 °C,12900 a.u.
DCAF1,46.8 °C,13100 a.u.
DCAF1,36.8 °C,9360 a.u.
WDR5,27.8 °C,14900 a.u.
DCAF1,44.2 °C,11900 a.u.
DCAF1,45.6 °C,12400 a.u.
WDR5,58.01 °C,11900 a.u.
WDR5,85.61 °C,40700 a.u.
DCAF1,59.61 °C,35900 a.u.
WDR5,26.8 °C,14800 a.u.
WDR5,28.8 °C,14800 a.u.

# For quick reference, copied from above (study 4):
target,temperature,SYPRO Orange fluorescence
DCAF1,45.6 °C,12400 a.u.
DCAF1,44.2 °C,11900 a.u.
WDR5,76.01 °C,12900 a.u.
WDR5,28.8 °C,14800 a.u.
DCAF1,59.61 °C,35900 a.u.
